Published values of several laboratories.
Each numbered part is a random draw from the data of one study; scales do not carry over between parts. Positions count from the first letter of the parent shown.

Set 1 — method: RNA Bind-n-Seq; form: RNA; sample: in vitro; tested at: 365 nM; relative to: no-protein control; direction: higher = stronger binding
Target: RNA binding protein fox-1 homolog 2, RRM domain, GST-SBP tag (RBFOX2, Homo sapiens, UniProt O43251-10, residues 100-194)
Notes: natural RNA segment, single round, ends assumed
For `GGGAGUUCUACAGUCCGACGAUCAUUUUUAUGUGAAGAUCCUUCUCGUAUUUCAUUUGGAAGGAUGAGCGAGGUCUGCUUCUUUCUUUUUACUUCCCCUGUGUUUCUGAAAGGCGGUUUGGCCAGGCUUACUGUGGAAUUCUCGGGUGCCAA`, “RBNS enrichment (R)” read 0.514.
Under “RBNS enrichment (R)”, `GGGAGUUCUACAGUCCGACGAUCGAAGACCAGGGGGAGUCAGGUGGUAUGACAGGGCCGAAGGGCAACAAAAUCUCCAUUUCCUUGUGCCUGGCACUGUCUCGAGCCUAAGCUAUUUUAAAGAUGUUUUAAACUGGAAUUCUCGGGUGCCAA` is recorded as 0.632.
`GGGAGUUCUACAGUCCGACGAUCCUGCUGCCCUAGAACUAGCGGUUAGAAGAAUCCGCUGUUCCUCCCUCAUCUCCUCUGCCUGUGUCUGCGACCCCCAUCCAUGUGCCAAAGUGUCCCUUGGGUCACACAGCUGGAAUUCUCGGGUGCCAA` — result for “RBNS enrichment (R)”: 0.783.
`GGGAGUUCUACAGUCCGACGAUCGUUCAAAACUAAUUGAUAAUUGAAGUAUCAAGAUACGUAGAACACCUCAGAGAUUUUUCUUCAGGAACUUCCACAAACUUUGAAUCCUUGUAUCUUUAUUUGGUAUUCAUUGGAAUUCUCGGGUGCCAA` — result for “RBNS enrichment (R)”: 0.553.
`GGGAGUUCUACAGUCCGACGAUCAAGGUCCUGUGCUGAUGGAGGCAUGACAGUCCUCUCGCAGCCUGAGGAGGGUUUUGUUCUGUCUGUGUCGCCUCUCCGCCGCACAGAAUCGAUGUGUGUGAUAUUCAGAGUGGAAUUCUCGGGUGCCAA`: “RBNS enrichment (R)” 1.46.
For `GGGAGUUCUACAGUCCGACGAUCAAACUUUACCACAUUUAUAAAUAUGAGGGAUUUUUUCUUUUGUUGGUUUUUAACCCUUUUAGACUAAGCCUCAAAAAUAUUAUCAUACCUGUGUACUUGUACAUUAAAAAUGGAAUUCUCGGGUGCCAA`, “RBNS enrichment (R)” read 0.606.
`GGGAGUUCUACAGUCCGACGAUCUUCCCUCUGUGUAGCUUUGUGGGGAUUUCAUGUAUAUAUGCUGUCUGAAAGAAUCCAGAGGUUGGAGUGCCAAUAGAAAAUGAAAACAAAUGCCUUGUACUACAGGCAGCUGGAAUUCUCGGGUGCCAA`: “RBNS enrichment (R)” 0.903.
`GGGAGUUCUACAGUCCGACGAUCCCGACCAUACAAACGAAGAAAUGAAGACGAGAAGGCCUCAUAUUCUAAUACCUCACUCAUUGACACGUGAGCAACACAAAGACAUUCACAAGGGCCGGCAUCACCAGACCUGGAAUUCUCGGGUGCCAA` — result for “RBNS enrichment (R)”: 0.724.
`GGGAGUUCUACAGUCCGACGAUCUGUUCAUCUGUGGGUCAUCGAGGCUGGAGCAGUUCCUGCUGAGUCAGGCUCUGUCCUAGAGUGGGCAGUCCUGAUGCAGGGCUCAGCAGGAGCCUAGUGCAGGGUGAACAUGGAAUUCUCGGGUGCCAA` — result for “RBNS enrichment (R)”: 0.48.
Under “RBNS enrichment (R)”, `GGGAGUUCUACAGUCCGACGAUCAAUGGCAGUACUUUAGGACACACACAAACACACAGACACACCUUUUGAUAUGUAAGCUUGACCUAAAGUCAAAGGACCUGUGUAGCAUUUCAGAUUGAGCACUUCACUAUUGGAAUUCUCGGGUGCCAA` is recorded as 2.02.
`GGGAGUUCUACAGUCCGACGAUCUAAGAUAAUUCUCACGUUCACACCUGGUGGCAGGCUUCACUGUAGGGACGGACAUUGCAGUUACACCACGAUUCCUUCCUCUUCACUGGCUCGAGGUAAACCCUUUUCAAUGGAAUUCUCGGGUGCCAA` — result for “RBNS enrichment (R)”: 0.531.
`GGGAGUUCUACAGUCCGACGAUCCAUCUUAGAUUUGUCGAUACCUUCGAAAUUUGAUGGUUUCAUCCCAAAUGACUGCACUAUAUGUAUGCAUACGGCCACUUUUGAUUGCUGCGCCCCUUCUGAGUAGUCUUUGGAAUUCUCGGGUGCCAA` — result for “RBNS enrichment (R)”: 0.798.

Set 2 — target: UBE2S UBC core domain (UniProt Q16763); method: yeast two-hybrid; sample: yeast; notes: mostly zero background; relative to: not given; direction: higher = stronger interaction
B1: MID1 RING domain (UniProt O15344); chain METLESELTCPICLELFEDPLLLPCAHSLCFNCAHRILVSHCATNESVESITAFQCPTCRHVITLSQRGL
B2: ZNF598 RING domain (UniProt Q86UK7); chain AAAPERGGGSCVLCCGDLEATALGRCDHPVCYRCSTKMRVLCEQRYCAVCREELRQVVFGK
B3: CUL9 RING domain (UniProt Q8IWT3); chain AQAVPVRPDHCPVCVSPLGCDDDLPSLCCMHYCCKSCWNEYLTTRIEQNLVLNCTCPIADCPAQPTGAFIR
B4: IRF2BPL RING domain (UniProt Q9H1B7); chain SPMANSGPLCCTICHERLEDTHFVQCPSVPSHKFCFPCSRESIKAQGATGEVYCPSGEKCPLVGSNVP
B5: TRIM69 RING domain (UniProt Q86WT6); chain VIQDITMELHCPLCNDWFRDPLMLSCGHNFCEACIQDFWRLQAKETFCPECKMLCQYNNCTF
B6: PHF21A RING domain (UniProt Q96BD5); chain SPTSTDGDIHEDFCSVCRKSGQLLMCDTCSRVYHLDCLDPPLKTIPKGMWICPRCQDQMLKKEEAIPW
Residues (chain): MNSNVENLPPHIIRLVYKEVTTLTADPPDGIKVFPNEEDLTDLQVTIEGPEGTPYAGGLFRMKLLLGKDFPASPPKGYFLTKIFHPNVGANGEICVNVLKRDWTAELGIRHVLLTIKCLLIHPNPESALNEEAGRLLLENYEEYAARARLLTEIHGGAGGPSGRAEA
`B1 (MID1 RING domain)`: “lacZ reporter activity” 0.
`FPEHFVKSISCQICEHILADPVETNCKHVFCRVCILRCLKVMGSYCPSCRYPCFPTDLES (RAG1 RING domain (UniProt P15918))`: “lacZ reporter activity” 0.
For `B2 (ZNF598 RING domain)`, “lacZ reporter activity” read 0.
For `B3 (CUL9 RING domain)`, “lacZ reporter activity” read 0.
Under “lacZ reporter activity”, `QLQDIKEQTMCPVCLDRLKNMIFLCGHGTCQLCGDRMSECPICRKAIERRILLY (MIB1 RING domain (UniProt Q86YT6))` is recorded as 0.
Under “lacZ reporter activity”, `PEELQAMDNVCIICREEMVTGAKRLPCNHIFHTSCLRSWFQRQQTCPTCRMDVLRASLPA (SYVN1 RING domain (UniProt Q86TM6))` is recorded as 0.
`B4 (IRF2BPL RING domain)` — result for “lacZ reporter activity”: 0.
For `B5 (TRIM69 RING domain)`, “lacZ reporter activity” read 0.
Under “lacZ reporter activity”, `YWAMDSTFELCKICAESNKDVKIEPCGHLLCSCCLAAWQHSDSQTCPFCRCEIKGWEAVS (CBLC RING domain (UniProt Q9ULV8))` is recorded as 0.
`QHHELTSLFECPVCFDYVLPPILQCQAGHLVCNQCRQKLSCCPTCRGALTPSIRNL (SIAH2 RING domain (UniProt O43255))` — result for “lacZ reporter activity”: 0.
For `RLTMMWEEVTCPICLDPFVEPVSIECGHSFCQECISQVGKGGGSVCPVCRQRFLLKNLRP (TRIM21 RING domain (UniProt P19474))`, “lacZ reporter activity” read 0.
`DDENSDNSNECVVCLSDLRDTLILPCRHLCLCTSCADTLRYQANNCPICRLPFRALLQIR (MGRN1 RING domain (UniProt O60291))`: “lacZ reporter activity” 0.
`B6 (PHF21A RING domain)`: “lacZ reporter activity” 0.
For `DAIPSLSECQCGICMEILVEPVTLPCNHTLCKPCFQSTVEKASLCCPFCRRRVSSWTRYH (RNF168 RING domain (UniProt Q8IYW5))`, “lacZ reporter activity” read 0.
For `QLRRLQEERTCKVCMDKEVSIVFIPCGHLVVCKDCAPSLRKCPICRSTIKGTVRTF (BIRC3 RING domain (UniProt Q13489))`, “lacZ reporter activity” read 0.

Set 3 — method: DHFR PCA, deep sequencing; sample: yeast; with: (+)-ABA 710 µM; relative to: wild-type fitted maximum; direction: higher = stronger binding
Target: ABI1, truncated, D143A, DHFR fusion (Arabidopsis thaliana)
Notes: methotrexate growth selection, single substitutions
Starting sequence: PYL1, truncated, DHFR fusion (Arabidopsis thaliana); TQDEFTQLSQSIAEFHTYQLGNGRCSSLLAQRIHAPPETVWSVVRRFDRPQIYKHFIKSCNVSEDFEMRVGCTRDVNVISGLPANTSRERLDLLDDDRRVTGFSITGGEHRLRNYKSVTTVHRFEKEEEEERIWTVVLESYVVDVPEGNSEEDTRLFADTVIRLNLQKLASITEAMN
`E89V` — result for “relative binding score”: -6.5%.
For `R46N`, “relative binding score” read 90.6%.
Under “relative binding score”, `T135V` is recorded as 84.8%.
Under “relative binding score”, `R45D` is recorded as 5.39%.
`R90Q`: “relative binding score” 103%.
`G81F` — result for “relative binding score”: 35.2%.
For `E151M`, “relative binding score” read 101%.
Under “relative binding score”, `Q31S` is recorded as 72.8%.
`V118Q` — result for “relative binding score”: 70.3%.
For `R45V`, “relative binding score” read 44.3%.
`V100W` — result for “relative binding score”: 52.4%.
For `R46T`, “relative binding score” read 88.4%.
Under “relative binding score”, `I79S` is recorded as 103%.
`L29Q`: “relative binding score” 94.2%.
Under “relative binding score”, `R163D` is recorded as 73.5%.
`S104T`: “relative binding score” 109%.
Under “relative binding score”, `N177S` is recorded as 102%.
`E131Y` — result for “relative binding score”: 101%.

Set 4 — target: CCND3, cyclin fold, Cln2 fusion (human); method: yeast growth competition, sequencing; sample: yeast; notes: weak parent motif; relative to: not given; direction: higher = stronger binding
Starting sequence: CABLES2 docking peptide (human); ICAKRSLCAAFSV
For `ICAKRSLCAAFAV [S12A]`, “normalised enrichment score” read 0.0526.
Under “normalised enrichment score”, `ICAKRSLCAAFSA [V13A]` is recorded as 0.283.
`ICAARSLCAAFSV [K4A]` — result for “normalised enrichment score”: -0.422.
For `ACAKRSLCAAFSV [I1A]`, “normalised enrichment score” read -0.135.
`ICAKRSACAAFSV [L7A]` — result for “normalised enrichment score”: -0.086.

Repeated from above (set 3):
`R90Q`: “relative binding score” 103%.
`G81F` — result for “relative binding score”: 35.2%.
For `E151M`, “relative binding score” read 101%.
Under “relative binding score”, `Q31S` is recorded as 72.8%.
`V118Q` — result for “relative binding score”: 70.3%.
For `R45V`, “relative binding score” read 44.3%.
`V100W` — result for “relative binding score”: 52.4%.
For `R46T`, “relative binding score” read 88.4%.
